Assay results gathered from unrelated publications.
Each numbered part is a random draw from the data of one study; scales do not carry over between parts. Changes are numbered by the printed parent chain.

Study 1 — method: DHFR PCA, deep sequencing; matrix: yeast; together with: (+)-ABA 2500 µM; relative to: wild-type fitted maximum; reading: higher = stronger binding
Target: ABI1, truncated, D143A, DHFR fusion (Arabidopsis thaliana)
Setting: methotrexate growth selection, single substitutions
Starting sequence: PYL1, truncated, DHFR fusion (Arabidopsis thaliana); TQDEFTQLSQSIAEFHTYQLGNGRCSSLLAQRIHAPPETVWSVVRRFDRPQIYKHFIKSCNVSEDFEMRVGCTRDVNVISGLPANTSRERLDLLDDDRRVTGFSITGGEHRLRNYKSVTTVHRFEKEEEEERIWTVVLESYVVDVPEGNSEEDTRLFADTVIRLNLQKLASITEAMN; partner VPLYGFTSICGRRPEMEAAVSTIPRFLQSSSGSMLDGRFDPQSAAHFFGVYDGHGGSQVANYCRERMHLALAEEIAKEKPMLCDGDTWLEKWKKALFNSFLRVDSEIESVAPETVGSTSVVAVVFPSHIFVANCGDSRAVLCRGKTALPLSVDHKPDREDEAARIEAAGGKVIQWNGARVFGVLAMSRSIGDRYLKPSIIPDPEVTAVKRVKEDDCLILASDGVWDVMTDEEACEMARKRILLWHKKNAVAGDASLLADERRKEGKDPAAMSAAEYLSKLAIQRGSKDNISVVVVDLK
`F5K` — result for “relative binding score”: 109%.
Under “relative binding score”, `E67A` is recorded as 92.1%.
`V62T` — result for “relative binding score”: 91.8%.
`L94Y`: “relative binding score” 104%.
`R88L` — result for “relative binding score”: 100%.
`F5G`: “relative binding score” 95.5%.
Under “relative binding score”, `S59M` is recorded as 99%.
`D75I` — result for “relative binding score”: 101%.
For `M68W`, “relative binding score” read 94.5%.
Under “relative binding score”, `D97L` is recorded as 98.4%.
`P50D` — result for “relative binding score”: 8.39%.
`L112C` — result for “relative binding score”: 96.7%.
For `I172Q`, “relative binding score” read 92.7%.
For `R49E`, “relative binding score” read 92.6%.
For `I79M`, “relative binding score” read 95%.
`R24E` — result for “relative binding score”: 102%.
For `M68P`, “relative binding score” read 90.1%.
`R163V`: “relative binding score” 69.9%.
`G23T` — result for “relative binding score”: 99.8%.
`N22Q` — result for “relative binding score”: 105%.
`V118S`: “relative binding score” 86.5%.
`E14C`: “relative binding score” 87.9%.
Under “relative binding score”, `F15C` is recorded as 87.6%.
`I12K`: “relative binding score” 95.9%.
Under “relative binding score”, `R99P` is recorded as 49.2%.

Study 2 — target: ATF5, bZIP domain (human); method: DHFR protein complementation; matrix: yeast; relative to: wild-type JUN-FOS pair; reading: higher = stronger binding
Setting: single substitutions, most at no-binding floor
Starting sequence: JUN, bZIP domain (human); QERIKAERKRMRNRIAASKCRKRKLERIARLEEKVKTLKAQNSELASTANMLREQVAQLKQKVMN; partner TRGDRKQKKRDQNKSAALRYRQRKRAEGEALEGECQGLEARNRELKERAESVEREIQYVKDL
For `A29M`, the binding fitness was -1.51 natural log.
For `A46C`, the binding fitness was -1.45 natural log.
The binding fitness of `Q55W` is reported as -1.48 natural log.
With `A49K` the binding fitness was -1.57 natural log.
`I28G` has a binding fitness of -1.42 natural log.
`A46T` gave a binding fitness of -1.46 natural log.
`S47K` gave a binding fitness of -1.57 natural log.
`S47I` gave a binding fitness of -1.58 natural log.
With `L31W` the binding fitness was -1.48 natural log.
`L45E` has a binding fitness of -1.57 natural log.
The binding fitness of `S47C` is reported as -1.49 natural log.
`A49W` has a binding fitness of -1.51 natural log.
`N42I` has a binding fitness of -1.41 natural log.
`V35F` has a binding fitness of -1.57 natural log.
`T48W` gave a binding fitness of -1.43 natural log.
The binding fitness of `V35N` is reported as -1.42 natural log.
The binding fitness of `T48P` is reported as -1.52 natural log.
For `T37N`, the binding fitness was -1.45 natural log.
The binding fitness of `E44R` is reported as -1.35 natural log.
The binding fitness of `Q41R` is reported as -1.46 natural log.
`L45T` gave a binding fitness of -1.57 natural log.
`E33D` gave a binding fitness of -1.48 natural log.
The binding fitness of `A49M` is reported as -1.36 natural log.
For `K39Q`, the binding fitness was -1.38 natural log.
With `A29E` the binding fitness was -1.3 natural log.

Study 3 — method: RNA Bind-n-Seq; form: RNA; matrix: in vitro; concentration: 365 nM; relative to: no-protein control; reading: higher = stronger binding
Target: RNA binding protein fox-1 homolog 2, RRM domain, GST-SBP tag (RBFOX2, Homo sapiens, UniProt O43251-10, residues 100-194)
Setting: natural RNA segment, single round, ends assumed
Constant ends, left off below: GGGAGUUCUACAGUCCGACGAUC … UGGAAUUCUCGGGUGCCAA
Residues (chain): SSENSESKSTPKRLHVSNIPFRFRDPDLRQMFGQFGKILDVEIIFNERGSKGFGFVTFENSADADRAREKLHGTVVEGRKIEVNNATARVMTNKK
`UUCCAAUCUGGACAUGAUGGGGCUGAUUCCAGAUGGUUUUUCUGAAAUUUCAUUAAGGUAGGUCAGCGUCAUUUGUCUCUGUUUAGGUAAAAUAUAAAAACCCUGCCCAG` — result for “RBNS enrichment (R)”: 0.346.
For `UUCCAUUUUUUCUUACAAUUCUUCAGGGAACUUACCUGCAUUAAGUGAGGUUAAAUGCAUUCAGGAGGUUGUUUGUUUCUUCUAUCUAGUUUUAGAAUAAUAUUUCUUCG`, “RBNS enrichment (R)” read 0.55.
`CCCUUUGGCCUCAUGAAUGGGUUUCAUGAAUGGGCUUCAGUGGCUUAUAAACUCUGUAAAAUUCUAUUCUAAAUUUUGUACAUUUAUUUUGUUCCGGUUAAUUCCAGAAG`: “RBNS enrichment (R)” 0.522.
Under “RBNS enrichment (R)”, `GCACAGGGUGAGACCCUUUUACACAGAAUGGUGGAGAGAAAAGAGAAUGCUGAAAAGUGGCUCAGAUGCAGAGUGUUCUGUGGAGAAACUGCAGCCCCACUUCUGUUUCC` is recorded as 2.41.
Under “RBNS enrichment (R)”, `CUACUCCCUGGACGUGUGGAGCUAGGGCCUGCCUGCCCCACCCACCCCACAGACUCCGGCCUGUAAUCAGCUCUCCUGGCUCCCUCCCGUAGUCUCCUGGGUGUGUUUGG` is recorded as 0.865.
Under “RBNS enrichment (R)”, `CAACAUGUAAAAAAAGGGGGCAUGGAUUUACAUUGCAAAAGGUGUCCACAGUGUAUUAGUGACAUUCUUUCAUUGACAGCUGACAUAAUUCAUUGAGUGAAAUAUUUUAA` is recorded as 0.595.
For `GCCAUGGAGGGCUGAAGCCCAGGCUCUCCUUACUCUCUGGAGUGUGAAGGUAGGGGUGAGCUCGUCUCACCCCUUUAUUAAAUGCUCCUGGAACUUGGAAGAGCAGCAGA`, “RBNS enrichment (R)” read 0.319.
Under “RBNS enrichment (R)”, `UACUCUUGCAACAUAACUACCAUCUCUCUCUUAAAACGAGAUCAGGUUAGCAAAUGAUGUAAAAGAAGCUUUAUUGUCUAGUUGUUUUUUUUCCCCCAAGACAAAGGCAA` is recorded as 0.312.

Study 4 — target: UBE2V1 UBC core domain (UniProt Q13404); method: yeast two-hybrid; matrix: yeast; setting: mostly zero background; relative to: not given; reading: higher = stronger interaction
B1: IRF2BPL RING domain (UniProt Q9H1B7); chain SPMANSGPLCCTICHERLEDTHFVQCPSVPSHKFCFPCSRESIKAQGATGEVYCPSGEKCPLVGSNVP
B2: RC3H2 RING domain (UniProt Q9HBD1); chain QAAQWTEFLSCPICYNEFDENVHKPISLGCSHTVCKTCLNKLHRKACPFDQTAINTDIDVL
B3: ZNF598 RING domain (UniProt Q86UK7); chain AAAPERGGGSCVLCCGDLEATALGRCDHPVCYRCSTKMRVLCEQRYCAVCREELRQVVFGK
B4: TRIM63 RING domain (UniProt Q969Q1); chain PMENLEKQLICPICLEMFTKPVVILPCQHNLCRKCANDIFQAANPYWTSRGSSVSMSGGRFRCPTCRHEVIMDRHGV
B5: ARK2C RING domain (UniProt Q6ZSG1); chain EGEESDTDEKCTICLSMLEDGEDVRRLPCMHLFHQLCVDQWLAMSKKCPICRVDIETQLGAD
B6: RNF170 RING domain (UniProt Q96K19); chain TRQQFYTDMYCPICLHQASFPVETNCGHLFCGACIIAYWRYGSWLGAISCPICRQTVTLLLTVF
Construct (chain): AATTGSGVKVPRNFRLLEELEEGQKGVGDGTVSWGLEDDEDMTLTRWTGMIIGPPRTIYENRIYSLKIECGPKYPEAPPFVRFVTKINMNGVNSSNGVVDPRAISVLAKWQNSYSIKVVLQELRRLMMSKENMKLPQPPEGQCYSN
For `QLRRLQEERTCKVCMDKEVSVVFIPCGHLVVCQECAPSLRKCPICRGIIKGTVRTF (BIRC2 RING domain (UniProt Q13490))`, “lacZ reporter activity” read 0.
`B1 (IRF2BPL RING domain)`: “lacZ reporter activity” 0.
`EDEVSDNSAECVVCLSDVRDTLILPCRHLCLCNTCADTLRYQANNCPICRLPFRALLQIR (RNF157 RING domain (UniProt Q96PX1))`: “lacZ reporter activity” 0.
`B2 (RC3H2 RING domain)`: “lacZ reporter activity” 0.
Under “lacZ reporter activity”, `YWAMDSTFELCKICAESNKDVKIEPCGHLLCSCCLAAWQHSDSQTCPFCRCEIKGWEAVS (CBLC RING domain (UniProt Q9ULV8))` is recorded as 0.
`FASPPDSNFVCSVCHGVLKRPARLPCSHIFCKKCILRWLARQKTCPCCRKEVKRKKVVH (RNF151 RING domain (UniProt Q2KHN1))` — result for “lacZ reporter activity”: 0.
`B3 (ZNF598 RING domain)`: “lacZ reporter activity” 0.
Under “lacZ reporter activity”, `FPEHFVKSISCQICEHILADPVETNCKHVFCRVCILRCLKVMGSYCPSCRYPCFPTDLES (RAG1 RING domain (UniProt P15918))` is recorded as 0.
Under “lacZ reporter activity”, `B4 (TRIM63 RING domain)` is recorded as 0.
`B5 (ARK2C RING domain)`: “lacZ reporter activity” 0.
For `B6 (RNF170 RING domain)`, “lacZ reporter activity” read 0.
`RLTMMWEEVTCPICLDPFVEPVSIECGHSFCQECISQVGKGGGSVCPVCRQRFLLKNLRP (TRIM21 RING domain (UniProt P19474))`: “lacZ reporter activity” 0.
For `QLQDIKEQTMCPVCLDRLKNMIFLCGHGTCQLCGDRMSECPICRKAIERRILLY (MIB1 RING domain (UniProt Q86YT6))`, “lacZ reporter activity” read 0.
